Measured values gathered from unrelated publications.
Parts stem from different laboratories: compare values within a part only.

Block 1 — method: protein-binding microarray; molecule type: double-stranded DNA, one strand shown; medium: in vitro; tested at: 940 nM top; setting: 60-bp whole probe; added: salmon DNA 0.4 mg/ml; relative to: random background probes; direction: higher = stronger binding; shared flanks, not repeated: GCCTAGCAC … GTCTTGATTCGCTTGACGCTGCTG
Target: Interferon regulatory factor 5, full length, phosphomimetic (IRF5, Homo sapiens, UniProt Q13568-2, residues 1-514, S451D/S453D/S456D/S462D)
Sequence | fitted relative affinity [z-score]
GACGAACTGAGTCTCGAGATGTGCTAG | 0.851
TTAGGTTTCGGGACTGGGTGAGTGCTA | 7.89
GACGGTCTCCTTCTCCTGAGGTGCTAG | 0.338
TCAATTTTCTAAATTCCACTGTGCTAG | 0.26
GTGATGTGAGGGGAGAGGGAGTGCTAG | 0.0281
TTAGGTATGGGGACTGGGTTAGTGCTA | 0.179
TCATTCCTCTTTCTTTGACTGTGCTAG | 2.09
GACGGACTGGGACCGGGGACGTGCTAG | -0.5
GACGGTATCCGTCTCGGGACGTGCTAG | 0.743
TCAACTTTGGAGATGACACTGTGCTAG | -0.189
GAATGTCTTCCCCTCTCTTTGTGCTAG | 0.615
TGGTCTCTAGTTAGAGAACTGTGCTAG | 1.18
TTAGGTATCGACTTTCGTTTAGTGCTA | 5.85
TTAGGTTTCGGGTTTCGGTCAGTGCTA | 11
TTAGCACTGGACACTGGGTTAGTGCTA | -0.686
CACGGTTTCGGTTTCGGGACGTGCTAG | 13.4
GACGGTTTCCCACTGCTGACGTGCTAG | 0.842
GACGGTATCGACTATCGGGCCGTGCTA | 4.6
TTAGGTTTCGGCTTCGGTTAGTGCTAG | 9.74

Block 2 — method: RNA Bind-n-Seq; molecule type: RNA; medium: in vitro; tested at: 90 pmol; setting: 4-mer, random 30-nt RNA, single round; added: 3 µM DMDA-PatA, 2 mM ADP, 2 mM phosphate; relative to: input library; direction: higher = stronger binding
Target: Eukaryotic initiation factor 4A-I (EIF4A1, Homo sapiens, UniProt P60842, residues 1-406, full length assumed)
UniProt P60842, sequence (whole entry, looked up): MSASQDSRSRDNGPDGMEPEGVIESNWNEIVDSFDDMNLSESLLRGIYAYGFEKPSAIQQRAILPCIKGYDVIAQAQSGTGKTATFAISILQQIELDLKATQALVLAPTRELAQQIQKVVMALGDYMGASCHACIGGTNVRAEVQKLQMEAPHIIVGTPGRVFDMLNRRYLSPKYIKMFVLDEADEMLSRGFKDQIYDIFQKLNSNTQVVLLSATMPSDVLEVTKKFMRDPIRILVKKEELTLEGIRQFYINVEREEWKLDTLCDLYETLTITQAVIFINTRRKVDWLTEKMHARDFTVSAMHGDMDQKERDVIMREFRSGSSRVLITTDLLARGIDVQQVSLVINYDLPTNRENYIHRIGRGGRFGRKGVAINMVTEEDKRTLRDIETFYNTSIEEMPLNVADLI
Sequence | 4-mer enrichment
GAGU | 1.82 fold
GGCG | 2.04 fold
CUCA | 0.604 fold
GCGU | 1.94 fold
CGCU | 0.685 fold
CUAG | 0.668 fold
UUCG | 0.696 fold
GCCG | 0.59 fold
UUGG | 1.17 fold
AAAC | 0.745 fold
UCAC | 0.59 fold
GAAA | 1.19 fold
CGAU | 0.907 fold
AGGA | 1.09 fold
UGCA | 0.832 fold
GUAG | 1.08 fold
GUCA | 0.761 fold

Block 3 — method: RNA Bind-n-Seq; molecule type: RNA; medium: in vitro; tested at: 200 nM; setting: whole 134-nt RNA, ends assumed; added: 150 mM KCl; relative to: input library; direction: higher = stronger binding
Target: Fragile X messenger ribonucleoprotein 1, C-terminal low-complexity region (Fmr1, Mus musculus, UniProt P35922)
Shared flanks, not repeated: GGGAGUUCUACAGUCCGACGAUC … UGGAAUUCUCGGGUGUCAAGG
Sequence | log2 enrichment
GCAGGAAGUAAAAACAAAUGGAAAUGCUUCGGAUAGUGGCAGGGGUGGGGGUUGCUAAGGAAAGGGUGGGAUGAAAGUGGGUAAAGAGUU | 0.546
UCAAGUCCUGUGCUACACAUCGUAUGUACCGAAUCGGGGCCGGGGCCGGGGCCGGAAAGUAUUAUGUUACGCCGUUCGGAUCUGCACUUC | -0.679
AAGUCCUGUGCUACACAUCGUAUGUACCGAAUCGGGGAAAGGAAAGGGGAAAGGGGAAAGUAUUAUGUUACGCCGUUCGGAUCUGCACUU | 0.252
GCAGGAAGUAAAAACAAAUAAAAAUGCUUCGGAUAGUGGCAGGGGUGGGGGUUGCUAAGGAAAGGGUGGGAUGGGAGUGGGUAAAGAGUU | 0.0143
CAAGUCCUGUGCUACACAUCGUAUGUACCGAAUCGGUUUGGGGUUUGGUUUGGGGAAAGUAUUAUGUUACGCCGUUCGGAUCUGCACUUC | -0.0308
UGGCCCUGGUGGCAUGCGGGGAGGAAGAGGUCGCCUCAUGGAUCGUGGUGGUCCCGGUGGAAUGUUCAGAGGUGGCCGUGGUGGAGACAG | -0.345
GCAGGAAGUAAAAACAAAUGGAAAUGCUUCGGAUAGUGGCAGGGGUGGGGGUUGCUAAAAAAAGGGUGGGAUGGGAGUGGGUAAAGAGUU | 0.195
CUCAAGUCCUGUGCUACACAUCGUAUGUACCGAAUCGGCCGGGGCCGGGCCGGGAAAGUAUUAUGUUACGCCGUUCGGAUCUGCACUUCC | -0.211
AAGUCCUGUGCUACACAUCGUAUGUACCGAAUCGGGUGGGAAAAAAAGGGAAAGGGAAAGUAUUAUGUUACGCCGUUCGGAUCUGCACUU | 0.575
AGUCCUGUGCUACACAUCGUAUGUACCGAAUCGGGUUUUGGUUUUGGGGUUUUGGGGAAAGUAUUAUGUUACGCCGUUCGGAUCUGCACU | 0.357
UCCUGUGCUACACAUCGUAUGUACCGAAUCGGGGAAAAAAGGAAAAAAGGGAAAAAAGGGAAAGUAUUAUGUUACGCCGUUCGGAUCUGC | -0.142
UCCUGUGCUACACAUCGUAUGUACCGAAUCGGGUUUUUGGGUUUUUGGGGUUUUUGGGGAAAGUAUUAUGUUACGCCGUUCGGAUCUGCA | 0.449
CUGUGCUACACAUCGUAUGUACCGAAUCGGGGAAAAAAAGGAAAAAAAGGAAAAAAAGGGGAAAGUAUUAUGUUACGCCGUUCGGAUCUG | -0.892
AAGUCCUGUGCUACACAUCGUAUGUACCGAAUCGGUUUGGAAAAAAAGGUUUUUGGAAAGUAUUAUGUUACGCCGUUCGGAUCUGCACUU | -1.03

Block 4 — method: RNA Bind-n-Seq; molecule type: RNA; medium: in vitro; tested at: 365 nM; relative to: no-protein control; direction: higher = stronger binding
Target: RNA binding protein fox-1 homolog 2, RRM domain, GST-SBP tag (RBFOX2, Homo sapiens, UniProt O43251-10, residues 100-194)
Setting: natural RNA segment, single round, ends assumed
Shared flanks, not repeated: GGGAGUUCUACAGUCCGACGAUC … UGGAAUUCUCGGGUGCCAA
Residues (chain): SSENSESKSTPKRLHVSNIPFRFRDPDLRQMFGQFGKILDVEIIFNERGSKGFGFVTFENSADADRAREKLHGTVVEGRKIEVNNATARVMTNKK
Sequence | RBNS enrichment (R)
CCGGAUCACCAGCCCUCUGCUGGUGGUCAUAAAGCACACACAGUUUGUACUUGCUUCCUCUCGACGCCUGCCACAACAGUUUUGCCAGUCACCAAACUCAGAAAAAACUA | 0.261
AGACAGUUCAGAUUACCAGGAUAAUCCCAAGCAGUAUCUCCAGUCUCGGCUGGUAGUGGCCCAGAUCUAUGCAGGCCCAUUAGCACACAUUCAAACCUUCCGGGGCUGUG | 0.371
UGUGUUAUUUUCCACAGAAUAUAGAAUAUAUAUUUUUUUCGUGUGUGUUUUUGUUAACUACCCUACAGAUAUUGAAUGCACCUUGAGAUAAUUUAGUGUUUUUAACUGAU | 0.629
UCCUUGCUCCUCCCAGUCCUGCACUGGCAUGAGUUCGGGUGUAGGAGGACAUGACUCCAAGGUGCUGGGAGAUGCACCAGUCUUGCGCAGCAGCACCUGUGGUCUGGCCU | 2.81
AAGUUAAGUUACUGUUCAAAGUUGAAAAGCAUAUAUGCUACAUUUUCUGCUGAAAGGUGAUUAUAUUUGACAGGUGCUUAGACAUUUGGCUAAGAUAUUUUCCAAUCAGU | 0.277
GAAAAGGAUACAAAAUGCAAAAUCCACAAUUUUGAUAACUGAAAAUUGCCAAUUGUUUUGCAGUACUUUAUUAUAUUGGGUGUCUUGUCUUUCUUGGGCUUUUAGUUAGC | 0.42
UCAGUGGUAGAGUGCUUGCCUGAUAUACAGGAAGCCUCAGUUUAAUCCUAAAUCCCAUUUCAAAAAUAUACUUAUCAUUGGAAUUUAUCUCCCAUUUUAACCACUUUUAG | 0.5
UGCCAAAGAUACAAGAAUAUGCAAAGUCCCUCCUCCUAACCCUCCUUCCCUCUAAGUCGGUGGCUUGAGAGCCGGGGAUGUGGAUUUGGUGUGGUUACAGGGUCCCCUGC | 0.426
GGAGCUCAGACUGCUGCUUUCAUAGGCAAAGUGUGCCCAUGGGGGCCAGUCAUGGGAACAUGUCAAAGCCAACAGGAAGCAGAACCUGUAGCUUUCUCUGGCAUUAGGGA | 0.302
UGUGGUUCUUUUCAGUGUGCCUGCAUAGCGUUCCUGUGUGUACCCCAAGGAUAACUGUAUGCUAUCCUUUCCCUAUCGGUCCCACUGUGCUGUGUUCAGCACAUUUUAGG | 0.321
UGCCAGAGAACAAGGUGUAUGUUCUUGGGAAGCAGGUCUAUGCCAGUGGGCUGUUUUGCCUUGUUUGUGCUUCUUCAGGACAGAGCAGUCCUGAUGAUACAGUAAUUGAU | 4.88
GGAUUAUGUAUUUUUAACUAAGGUGAGACAUUGAUAUAUCCUUUUGCUACAAGCUAUAGCUAAUGUGCUGAGCUUGUGCCUUGGUGAUUGAUUGAUUGAUUGACUGAUUG | 0.325

Some of these lines once more (block 4):
Sequence | RBNS enrichment (R)
AGACAGUUCAGAUUACCAGGAUAAUCCCAAGCAGUAUCUCCAGUCUCGGCUGGUAGUGGCCCAGAUCUAUGCAGGCCCAUUAGCACACAUUCAAACCUUCCGGGGCUGUG | 0.371
UGUGUUAUUUUCCACAGAAUAUAGAAUAUAUAUUUUUUUCGUGUGUGUUUUUGUUAACUACCCUACAGAUAUUGAAUGCACCUUGAGAUAAUUUAGUGUUUUUAACUGAU | 0.629
UCCUUGCUCCUCCCAGUCCUGCACUGGCAUGAGUUCGGGUGUAGGAGGACAUGACUCCAAGGUGCUGGGAGAUGCACCAGUCUUGCGCAGCAGCACCUGUGGUCUGGCCU | 2.81
AAGUUAAGUUACUGUUCAAAGUUGAAAAGCAUAUAUGCUACAUUUUCUGCUGAAAGGUGAUUAUAUUUGACAGGUGCUUAGACAUUUGGCUAAGAUAUUUUCCAAUCAGU | 0.277
GAAAAGGAUACAAAAUGCAAAAUCCACAAUUUUGAUAACUGAAAAUUGCCAAUUGUUUUGCAGUACUUUAUUAUAUUGGGUGUCUUGUCUUUCUUGGGCUUUUAGUUAGC | 0.42
UCAGUGGUAGAGUGCUUGCCUGAUAUACAGGAAGCCUCAGUUUAAUCCUAAAUCCCAUUUCAAAAAUAUACUUAUCAUUGGAAUUUAUCUCCCAUUUUAACCACUUUUAG | 0.5
UGCCAAAGAUACAAGAAUAUGCAAAGUCCCUCCUCCUAACCCUCCUUCCCUCUAAGUCGGUGGCUUGAGAGCCGGGGAUGUGGAUUUGGUGUGGUUACAGGGUCCCCUGC | 0.426
GGAGCUCAGACUGCUGCUUUCAUAGGCAAAGUGUGCCCAUGGGGGCCAGUCAUGGGAACAUGUCAAAGCCAACAGGAAGCAGAACCUGUAGCUUUCUCUGGCAUUAGGGA | 0.302
UGUGGUUCUUUUCAGUGUGCCUGCAUAGCGUUCCUGUGUGUACCCCAAGGAUAACUGUAUGCUAUCCUUUCCCUAUCGGUCCCACUGUGCUGUGUUCAGCACAUUUUAGG | 0.321
